Published values of several laboratories.
Numbered parts are unrelated; each lists some results of a single study.

Sample 1
Target: RING finger protein unkempt homolog, zinc fingers 1-6, GST-SBP tag (UNK, Homo sapiens, UniProt Q9C0B0, residues 30-357)
Technique: RNA Bind-n-Seq
Molecule type: RNA
Medium: in vitro
Concentration: not given
Notes: RNA with constant flanks, human and mouse sites, ends assumed
Baseline: input RNA pool
Reading: higher = stronger binding
All sequences stand within: GGGAGUUCUACAGUCCGACGAUC … CAACAGAGGAUUGAGCAUCA
Target sequence (chain): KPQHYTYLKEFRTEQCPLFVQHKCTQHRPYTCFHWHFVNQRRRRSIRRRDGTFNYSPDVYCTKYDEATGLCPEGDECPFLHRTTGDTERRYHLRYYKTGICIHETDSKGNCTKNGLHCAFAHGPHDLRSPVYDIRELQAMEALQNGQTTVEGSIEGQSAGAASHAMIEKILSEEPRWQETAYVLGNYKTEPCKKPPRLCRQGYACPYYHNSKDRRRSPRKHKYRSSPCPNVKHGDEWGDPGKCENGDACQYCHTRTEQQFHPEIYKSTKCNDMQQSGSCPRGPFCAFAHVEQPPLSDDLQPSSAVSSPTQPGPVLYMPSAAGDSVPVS
| Strand | bound/input enrichment |
| --- | --- |
| CACCUACUAACCUCACUGUCCUACAAAGUUCGAAUGCAAGCACUGAAAUGUUUCUCAGUUUUAGCUUUUGAAAACCCCCAGGUAUCGAUGACCCUGGUAAAUGUUUUGGUUGAUGGAGAA | 0.228 ratio |
| AACAAGACAGACUUGCUCGAGGAGAAAGUGCAAGUUGUUAGCAUCAAAGACUAUUUCCUAGAAUUUGAAGGGGACCCCCACUGCUUAAGAGACGUCCAAAAGUUUCUGGUGGAAUGCUUC | 0.227 ratio |
| CCCUUGCCUCACCUGUAUUGCUGUGGAUGUGUUUUGUGGGUUUUUCAUUCGAUUUUACAAAAUAGGGAAAGGCACUUCCAGUUGUAUUUAGUAGGCAGUUGUUGUGAAUCAUUUUUUUCU | 0.847 ratio |
| CAAGAAGGUUGUUGCUUGGUUCGUUCCAAAGAUGAAGAAGCAGACAAUGAUAAUUAUGAAGUUUUAUUCAAUUUGGAGGAACUUAAGUUAGACCAGCCCUUCAUUGAUUGUAUCAGAGUU | 0.149 ratio |
| UCCGAAUGAUCGAGUUGUGGCGGGCUUUGAGAUGUCAGAGGAUUUAGCAAAGCAGCUGGCAAGCUACAAAGCUCAGCUCCAGCAAGUUGAAGCUGCAUUAUCUGGAAAUGGAGAAAAUGA | 0.241 ratio |
| UGCCUCUGUCUUGUAUUUGUUUUGUUCUGUUUUCUCAUUGGGGGUAAAUGGUGCCUGGCACAUGGCAGGCACUCAAUAAAUAUUUGUUUGUGGAAUGUCUCCUUUCUCUUUCCACUCUGA | 0.323 ratio |
| GACCGCAUUGUGCCAGUGGACAUCUAUGUGCCAGGCUGCCCGCCCACGGCCGAAGCACUCCUUUAUGGCAUCUUGCAGCUGCAACGGAAGAUCAAGCGUGAACAGAAGCUGAAGAUCUGG | 0.098 ratio |
| UAUAGUAUAGAUUUUAUUUUUAAGAAGUUUAUAUAAUUCUUUUGUGAACCAAUAUGUAAAACUAGAAUAUUUAUUAAACUAAUAAUAUGUAUUAGUAUCAAUAAAAUAUGUAUUUAUUUU | 8.01 ratio |

Sample 2
Target: Ras GTPase-activating protein-binding protein 1, full length (G3BP1, Homo sapiens, UniProt Q13283)
Sequence of UniProt Q13283 (whole entry, looked up): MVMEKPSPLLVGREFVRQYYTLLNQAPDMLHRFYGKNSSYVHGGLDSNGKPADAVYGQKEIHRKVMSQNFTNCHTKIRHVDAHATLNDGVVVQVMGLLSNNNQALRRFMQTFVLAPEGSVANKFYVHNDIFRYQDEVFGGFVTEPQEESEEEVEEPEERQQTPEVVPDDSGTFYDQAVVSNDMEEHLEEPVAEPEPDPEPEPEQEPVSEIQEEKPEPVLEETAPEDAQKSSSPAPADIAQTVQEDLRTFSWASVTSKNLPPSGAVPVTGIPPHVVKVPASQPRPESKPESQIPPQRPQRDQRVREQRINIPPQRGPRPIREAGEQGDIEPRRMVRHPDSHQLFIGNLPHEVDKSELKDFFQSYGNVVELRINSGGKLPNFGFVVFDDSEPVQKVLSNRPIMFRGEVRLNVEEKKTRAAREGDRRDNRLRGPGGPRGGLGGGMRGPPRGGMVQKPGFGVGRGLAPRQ
Technique: RNA Bind-n-Seq
Molecule type: RNA
Medium: in vitro
Concentration: 200 nM
Notes: whole 134-nt RNA, ends assumed
Added: 150 mM LiCl
Baseline: input library
Reading: higher = stronger binding
Library: 7-deaza-guanosine replaces G
All sequences stand within: GGGAGUUCUACAGUCCGACGAUC … UGGAAUUCUCGGGUGUCAAGG
| Strand | log2 enrichment |
| --- | --- |
| CAAGUCCUGUGCUACACAUCGUAUGUACCGAAUCGGAAAAAGGAGGUUUUUUUGGAAAGUAUUAUGUUACGCCGUUCGGAUCUGCACUUC | -0.916 |
| UCAAGUCCUGUGCUACACAUCGUAUGUACCGAAUCGGGUUGGGGUUGGUUGGGGAAAGUAUUAUGUUACGCCGUUCGGAUCUGCACUUCC | 0.272 |
| CACAGACAACACGCACCCACACAGACACAGAGGGAAGGGGUUGGGAGGGGGACAGGGUGCACAGCAGGGCGGGGUAGGACCCCAGCCCCU | 0.621 |
| ACCAUGCAGGUGGGCAUCUUUGGGAAGUGGGGCAAGGGGGGGAUAGGGAGGGGGGUUACACUUUGGGAACAGGUGGUCCCAGGUCGUUUC | 0.143 |
| CAAGUCCUGUGCUACACAUCGUAUGUACCGAAUCGGGUUUGGGUGGGUUUUUGGGAAAGUAUUAUGUUACGCCGUUCGGAUCUGCACUUC | 0.763 |
| UCCUGUGCUACACAUCGUAUGUACCGAAUCGGGAAAAAAGGGGAAAAAAGGAAAAAAGGGAAAGUAUUAUGUUACGCCGUUCGGAUCUGC | 0.14 |
| UUCAGGAUUGUGAGGGUGAAACUCCCAUUCACAAGGCAGCUCGCUCUGGGAGCCUAGAAUGCAUCAGUGCCCUUGUGGCGAAUGGGGCUC | -0.62 |
| GUCCUGUGCUACACAUCGUAUGUACCGAAUCGGGGCCCCCGGGCCCCCGGGGCCCCCGGAAAGUAUUAUGUUACGCCGUUCGGAUCUGCA | -1.22 |

Sample 3
Target: Histone acetyltransferase KAT6A, winged helix 2, GST fusion (KAT6A, Homo sapiens, UniProt Q92794, residues 85-181)
Technique: protein binding microarray
Molecule type: double-stranded DNA, one strand shown
Medium: in vitro
Concentration: not given
Notes: 8-mer, flanks averaged, mean of 2 arrays, mostly near background
Baseline: not given
Reading: higher = stronger binding
Target sequence (chain): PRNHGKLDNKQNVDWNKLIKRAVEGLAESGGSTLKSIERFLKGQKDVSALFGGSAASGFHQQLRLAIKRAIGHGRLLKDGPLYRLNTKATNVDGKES
| Strand | E-score |
| --- | --- |
| AGAGATGC | -0.0121 |
| GACCACCC | -0.0769 |
| CACGTCAC | -0.0721 |
| ATGGATAA | -0.133 |
| CCGGACCG | -0.0062 |
| ACTACATC | -0.0581 |
| ACCTTCTG | 0.105 |
| CTCGACGA | -0.0462 |
| CGCGACAC | 0.106 |
| AACGTACT | -0.153 |
| ACGTTTAT | -0.109 |
| CGCACAGC | 0.252 |
| AATTTGAG | -0.0305 |
| GGGTGTAA | 0.065 |
| CACACTAC | 0.00555 |
| CAATCCCA | -0.0862 |
| CTCACGTA | -0.221 |

Sample 4
Target: RNA binding protein fox-1 homolog 2, RRM domain, GST-SBP tag (RBFOX2, Homo sapiens, UniProt O43251-10, residues 100-194)
Technique: RNA Bind-n-Seq
Molecule type: RNA
Medium: in vitro
Concentration: 365 nM
Notes: natural RNA segment, single round, ends assumed
Baseline: no-protein control
Reading: higher = stronger binding
All sequences stand within: GGGAGUUCUACAGUCCGACGAUC … UGGAAUUCUCGGGUGCCAA
Target sequence (chain): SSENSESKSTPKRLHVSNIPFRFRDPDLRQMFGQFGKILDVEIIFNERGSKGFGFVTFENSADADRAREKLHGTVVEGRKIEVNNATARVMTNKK
| Strand | RBNS enrichment (R) |
| --- | --- |
| UGAAACUUGGAGGCUUACAGGUAUAGACAGCUUUCAGCUACAGCACAUUCUAAUUUUUUAUUUUGUUUAGUUCUUUUGUAUUCACUUCUGGUCUCUUUAAGACUGUUUUA | 0.403 |
| GAUAUCAAGUUUCUUCAUAUCAAAGCUUCAUUGGUGACCUCAUUUGCUUUACAAGUGACCAGCCAUCUUGCAGGCUUCAUGCUUCUGAGAGCCUUACUUAGAAGAUGCUG | 0.222 |
| CUGCCUGAUUCACCCUUAUUGGCAUGUGAGCCAUUGGGAUGCCAUUGAGAAUCAUGAUGAACUUUGGGUGUGUCUGUCCUGUGAGGAAGCGUGUCUGGAAAGGGGUUCAU | 1.59 |
| ACUCCAGCGGCCCUGGCGCGUGGCUCCUGCAUAGCUAGCCCAAGCCAAUAAAGGGCUGUGAUGAGUGGCUGCGCCUGUGCUCUGCUUGUGCACGGACUCUGGGACUCUCA | 0.258 |
| CUCACUAAAGCAUGAAAUGUGAAUUUUUAUUGUUGUACAUACGAUUUAAGGUAUUUAAAGUAUUUUCUUCUCUGUGAGAAGGUUUAUUGUUAAUACAAGGUAUAAUAAAA | 13 |
| CCCCAUCCACACCAUUCUCCAUUCGAGAGACUACCCCUGUUUCAGAGCCAGUCCCCACCUAGUCCCGUCCCUGCCACCUACACCCAAGGUCUUCAGCUUUAAGUUGCUGG | 0.735 |
| ACCCACCUUAGGUGGAGGACUUCCCCAUGCACACCACCACCCCUCUUAGAGCACAGGCUAAGGGCCACGGCUAACAGGGACGUCCCAUUUCUUUCCUGUUCCAUCCAACU | 0.782 |
| CGUUCCCGGGAAACGACCAAACGAACCGAACACAUAUAAACAAGGCACAGAGAAGUGGCCACAGCCUUCCCACCCCACGACCAGAGACUGGCCUGGCCUCACUGCUUUCA | 0.651 |

Excerpt of the above (sample 3):
| Strand | E-score |
| --- | --- |
| CGCACAGC | 0.252 |
| CAATCCCA | -0.0862 |
| CTCGACGA | -0.0462 |
| GGGTGTAA | 0.065 |
| AGAGATGC | -0.0121 |
| GACCACCC | -0.0769 |
